Results gathered from unrelated publications.
Lines come from different studies, so protocols differ. Numbers after ± are the reported error.
Sequence of UniProt Q9P2K8 (whole entry, looked up): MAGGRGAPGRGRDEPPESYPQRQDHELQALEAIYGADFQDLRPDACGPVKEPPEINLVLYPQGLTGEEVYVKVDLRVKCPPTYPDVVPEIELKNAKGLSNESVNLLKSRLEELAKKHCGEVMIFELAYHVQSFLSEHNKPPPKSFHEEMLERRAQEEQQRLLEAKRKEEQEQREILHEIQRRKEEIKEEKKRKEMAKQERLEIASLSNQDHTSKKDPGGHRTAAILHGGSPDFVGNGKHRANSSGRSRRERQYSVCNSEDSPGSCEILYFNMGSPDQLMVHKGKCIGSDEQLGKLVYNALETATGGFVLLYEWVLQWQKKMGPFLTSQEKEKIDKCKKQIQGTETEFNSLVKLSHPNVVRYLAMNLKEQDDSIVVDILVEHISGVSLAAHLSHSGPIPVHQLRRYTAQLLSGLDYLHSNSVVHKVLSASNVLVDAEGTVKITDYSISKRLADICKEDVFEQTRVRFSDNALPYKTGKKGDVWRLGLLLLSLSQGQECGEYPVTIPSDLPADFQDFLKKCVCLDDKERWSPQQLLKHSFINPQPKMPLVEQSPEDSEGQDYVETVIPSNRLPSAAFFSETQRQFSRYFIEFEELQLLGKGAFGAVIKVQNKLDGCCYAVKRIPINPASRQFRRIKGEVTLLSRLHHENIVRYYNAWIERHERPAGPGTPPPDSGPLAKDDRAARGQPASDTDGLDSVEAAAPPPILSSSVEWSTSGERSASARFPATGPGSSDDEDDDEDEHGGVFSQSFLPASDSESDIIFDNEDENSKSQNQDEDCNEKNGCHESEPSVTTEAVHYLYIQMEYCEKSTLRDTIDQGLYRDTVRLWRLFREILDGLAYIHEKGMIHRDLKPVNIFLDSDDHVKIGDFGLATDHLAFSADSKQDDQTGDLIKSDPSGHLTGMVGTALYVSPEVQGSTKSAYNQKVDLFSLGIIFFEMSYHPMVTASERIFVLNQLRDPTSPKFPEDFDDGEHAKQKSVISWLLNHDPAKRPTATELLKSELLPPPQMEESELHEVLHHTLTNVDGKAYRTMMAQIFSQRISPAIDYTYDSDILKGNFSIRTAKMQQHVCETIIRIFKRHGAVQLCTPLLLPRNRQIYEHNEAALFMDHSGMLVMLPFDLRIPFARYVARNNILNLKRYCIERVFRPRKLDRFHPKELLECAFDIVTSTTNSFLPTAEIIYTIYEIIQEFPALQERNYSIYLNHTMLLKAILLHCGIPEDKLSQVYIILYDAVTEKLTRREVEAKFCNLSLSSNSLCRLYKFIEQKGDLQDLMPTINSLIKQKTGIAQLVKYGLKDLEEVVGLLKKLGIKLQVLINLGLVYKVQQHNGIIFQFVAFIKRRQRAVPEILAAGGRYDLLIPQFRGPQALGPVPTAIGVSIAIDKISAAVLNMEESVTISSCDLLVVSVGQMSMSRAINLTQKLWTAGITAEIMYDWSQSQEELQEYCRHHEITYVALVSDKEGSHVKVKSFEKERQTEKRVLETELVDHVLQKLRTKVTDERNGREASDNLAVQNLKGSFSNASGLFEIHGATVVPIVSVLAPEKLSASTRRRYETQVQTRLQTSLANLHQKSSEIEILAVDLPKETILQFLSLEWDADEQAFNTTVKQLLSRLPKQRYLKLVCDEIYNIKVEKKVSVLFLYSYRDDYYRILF

Compound = O=C(C[Se]C(=O)c1cccs1)Nc1cccc(C(F)(F)F)c1; tested on = NCI60 ovarian subpanel; assay = cell growth; setting = 10 µM, 48 h, one-dose; measurement = mean growth percent; result = -76.7%
Compound = Cc1cc(Oc2nc(N3CC[C@@H](c4ccncc4)C3)ncc2F)[nH]n1; tested on = CLS-439; assay = cell proliferation; measurement = IC50; result = 64.6 µM
Compound = O=C(C[Se]C(=O)c1cc2ccccc2[nH]1)Nc1cccc(C(F)(F)F)c1; tested on = NCI60 prostate subpanel (PC-3, DU-145); assay = cytotoxicity, inhibitor; setting = five-dose; measurement = CC50; result = 6.37 µM
Compound = CC(C)(C)C(=O)OCOP(=O)(OCOC(=O)C(C)(C)C)C1CCCN(O)C1=O (stereo not shown); tested on = OVCAR-8; measurement = log TGI; result = -5.05 log M
Compound = CC(C)C[C@H](NC(=O)[C@H](CC(=O)O)NC(=O)CNC(=O)[C@@H](N)CCCNC(=N)N)C(=O)N[C@@H](C)C(=O)N[C@H](C(=O)N[C@@H](CC(C)C)C(=O)N[C@@H](CCCNC(=N)N)C(=O)N[C@@H](CCC(N)=O)C(=O)N[C@@H](CC(C)C)C(=O)N[C@@H](C)C(=O)N[C@@H](CCC(N)=O)C(=O)N[C@@H](CCC(=O)O)C(=O)N[C@@H](CC(=O)O)C(=O)NCC(=O)N[C@H](C(=O)N[C@H](C(=O)NCC(=O)N[C@H](C(=O)N[C@@H](CCCNC(=N)N)C(=O)NCCOCCOCCOCCOCCOCCOCCOCCOCCOCCOCCOCCOCCC(=O)N[C@@H](CS)C(N)=O)C(C)C)C(C)C)C(C)C)[C@@H](C)O; tested on = H2087; assay = phage binding; setting = 10 min, 37 °C; scale = baseline: control phage; measurement = selectivity ratio; result = 2.9 ± 1.4
Compound = COc1ccccc1-c1ccncc1C(=O)Nc1nnc(OCc2ccc(Cl)cc2)s1; tested on = DLD-1 BRCA2-/-; setting = 1 µM, mean of 3 replicates; scale = baseline: untreated; measurement = colony survival; result = 38.9%
Compound = CC(=O)NCSC[C@H](NC(=O)[C@@H]1CCCN1C(=O)[C@H](C)NC(=O)[C@@H](NC(=O)CNC(=O)[C@@H](NC(=O)[C@H](Cc1c[nH]c2ccccc12)NC(=O)[C@H](C)NC(=O)CNC(=O)[C@H](CO)NC(=O)[C@H](C)NC(=O)[C@@H]1CCCN1C(=O)[C@H](Cc1c[nH]c2ccccc12)NC(=O)[C@H](C)NC(=O)[C@H](C)NC(=O)[C@@H](N)Cc1ccc(O)cc1)[C@@H](C)O)[C@@H](C)O)C(=O)N[C@@H](CO)C(=O)N[C@@H](C)C(=O)NCC(=O)N[C@H](C(=O)NCCOCCOCCOCCOCCOCCOCCOCCOCCOCCOCCOCCOCCC(=O)N[C@@H](CS)C(N)=O)[C@@H](C)O; tested on = T47D breast cancer; assay = cell binding, phage binding, item: output/input phage; setting = 10 min, 37 °C; scale = baseline: control phage; measurement = selectivity ratio; result = 12 ± 2.3
Compound = O=C(O)c1ccc(-c2nc(-c3ccccc3Cl)c3sccn23)cc1; tested on = HEL; assay = flow cytometry; setting = 0.1 mM; measurement = CD61-positive cells; result = 78.1%
Compound = COc1ccccc1-c1n[nH]c2nc(N[C@H]3CC[C@H](NS(=O)(=O)CC(C)C)CC3)ncc12; assay = bead binding, competition bead pull-down, item: LINJ.35.3130; system = Leishmania donovani extract; setting = 10 µM; scale = baseline: vehicle; measurement = relative abundance; result = 1.06
Compound = O=C1NC2(CC2)COc2ncc(F)cc2[C@H]2COCCN2c2ccn3ncc1c3n2; system = Sprague-Dawley rat, female, serum; setting = oral, 10 mg/kg/day, end of recovery, 4-week subacute toxicity; measurement = serum triglycerides; result = 0.4 ± 0.11 mmol/L
Compound = CS(C)(=O)=Nc1ccc(-c2ccc(-c3nc4cc(O[C@@H]5CO[C@H]6[C@@H]5OC[C@H]6O)[nH]c4cc3F)cc2)cc1; tested on = EIF2AK4 (Homo sapiens, UniProt Q9P2K8); assay = enzyme activity, inhibitor; setting = 10 µM; measurement = inhibition; result = 8%
Compound = CC(=O)Oc1ccccc1C(=O)[Se]CC(=O)Nc1cccc(C(F)(F)F)c1; tested on = NCI60 ovarian subpanel; assay = cytotoxicity, inhibitor; setting = five-dose; measurement = CC50; result = 48.7 µM
Compound = COc1ccccc1-c1n[nH]c2nc(NC3CCN(C(=O)Cc4ccc(F)cc4F)CC3)ncc12; assay = bead binding, competition bead pull-down, item: LMJF.28.2750; system = Leishmania donovani extract; setting = 10 µM; scale = baseline: vehicle; measurement = relative abundance; result = 0.97
